Experimental data gathered from unrelated publications.
Compare with care: the assays were run in different laboratories.
RPS6KA2 C-terminal kinase domain: Ribosomal protein S6 kinase alpha-2, C-terminal kinase domain (RPS6KA2, Homo sapiens, UniProt Q15349)
RPS6KA2 N-terminal kinase domain: Ribosomal protein S6 kinase alpha-2, N-terminal kinase domain (RPS6KA2, Homo sapiens, UniProt Q15349)

| SMILES | target | test | setting | how to read | remaining binding [%] |
| --- | --- | --- | --- | --- | --- |
| CNC1C[S+]2CC[S+]3CC[S+](C1)[Ru-4]321([N]=C=S)[n]2c3ccc(OC)cc3c3c4c(c5cc(F)c[n+]1c5c32)C(=O)NC4=O (stereo not drawn) | RPS6KA2 C-terminal kinase domain | KinomeScan | 0.1 µM | baseline: untreated | 69 |
| COc1cc(Nc2nc(C)cc(-c3cnn4nc(OC)ccc34)n2)cc(C(F)(F)F)c1 | RPS6KA2 C-terminal kinase domain | binding, competition with immobilised ligand | 1 µM |  | 90 |
| COc1c(Cl)cccc1Nc1c(-c2ccncc2C#C[C@@]2(C)CCCN2C(=O)/C=C/CN(C)C)[nH]c2c1C(=O)NCC2 | RPS6KA2 N-terminal kinase domain | binding, competition with immobilised ligand | 3 µM |  | 100 |
| CNC(=O)C1CCN(c2cc(C)c(F)cc2NC(=O)c2ccc(-c3cc(O)ccc3C)c(C)c2)CC1 | RPS6KA2 N-terminal kinase domain | binding, competition with immobilised ligand | 1 µM |  | 94 |
| Cc1cnc2nc1Nc1cccc(c1)COC/C=C/COCc1cc(ccc1OCCN1CCOCC1)N2 | RPS6KA2 N-terminal kinase domain | binding, competition with immobilised ligand | 0.1 µM |  | 100 |
| COc1cc(Nc2nccc(-c3cnn4nc(OC)ccc34)n2)cc(C(F)(F)F)c1 | RPS6KA2 N-terminal kinase domain | binding, competition with immobilised ligand | 1 µM |  | 93 |
| Nc1ncc2c(n1)-c1c([nH]c3ccc(C4=CCOCC4)cc13)CCC2 | RPS6KA2 N-terminal kinase domain | binding, competition with immobilised ligand | 1 µM |  | 100 |
| CC(C)=CC1OC(C)(C)C2C=C3C(=O)C(Cl)=CC(O)C3C3C(O)C4OC4C(=O)C132 (stereo not drawn) | RPS6KA2 N-terminal kinase domain | cell-free assay, competition with immobilised ligand | 10 µM |  | 98 |
| Cc1ccc(-c2c(/C=C(\C#N)C(=O)NC(C)C)n(CCCO)c3ncnc(N)c23)cc1 | RPS6KA2 N-terminal kinase domain | binding, competition with immobilised ligand | 1 µM |  | 78 |
| C=CC(=O)N1CCCC(n2c(=O)c3ncccc3n(Cc3ccc(Oc4ccccc4)cc3)c2=O)C1 (stereo not drawn) | RPS6KA2 N-terminal kinase domain | binding, competition with immobilised ligand | 1 µM |  | 86 |
| CCN1CCN(Cc2ccc(C(=O)Nc3ccc(C)c(NCc4cnc5[nH]ccc5c4OC)c3)cc2C(F)(F)F)CC1 | RPS6KA2 C-terminal kinase domain | binding, competition with immobilised ligand | 1 µM |  | 83 |
| C=CC(=O)N1CCc2ccc(-n3c(=O)ccc4cnc5ccc(-c6cnn(C)c6)cc5c43)cc21 | RPS6KA2 N-terminal kinase domain | KINOMEscan | 1 µM | baseline: DMSO control | 100 |

A few entries again:
| SMILES | target | test | setting | how to read | remaining binding [%] |
| --- | --- | --- | --- | --- | --- |
| Cc1cnc2nc1Nc1cccc(c1)COC/C=C/COCc1cc(ccc1OCCN1CCOCC1)N2 | RPS6KA2 N-terminal kinase domain | binding, competition with immobilised ligand | 0.1 µM |  | 100 |
| COc1c(Cl)cccc1Nc1c(-c2ccncc2C#C[C@@]2(C)CCCN2C(=O)/C=C/CN(C)C)[nH]c2c1C(=O)NCC2 | RPS6KA2 N-terminal kinase domain | binding, competition with immobilised ligand | 3 µM |  | 100 |
